Measurements from different studies.
A part holds a random share of what one study measured. Positions count from the first letter of the parent shown.

Series 1
Target: ABI1, truncated, D143A, DHFR fusion (Arabidopsis thaliana)
Method: DHFR PCA, deep sequencing
Matrix: yeast
Setting: methotrexate growth selection, single substitutions
With: (+)-ABA 4.8 µM
Reference: wild-type fitted maximum
Reading: higher = stronger binding
Measurement: relative binding score
Parent: PYL1, truncated, DHFR fusion (Arabidopsis thaliana); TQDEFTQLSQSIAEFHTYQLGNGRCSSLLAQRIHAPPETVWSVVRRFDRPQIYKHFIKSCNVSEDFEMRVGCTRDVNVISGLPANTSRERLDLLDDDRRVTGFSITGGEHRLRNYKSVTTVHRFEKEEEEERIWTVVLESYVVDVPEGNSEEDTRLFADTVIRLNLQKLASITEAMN; partner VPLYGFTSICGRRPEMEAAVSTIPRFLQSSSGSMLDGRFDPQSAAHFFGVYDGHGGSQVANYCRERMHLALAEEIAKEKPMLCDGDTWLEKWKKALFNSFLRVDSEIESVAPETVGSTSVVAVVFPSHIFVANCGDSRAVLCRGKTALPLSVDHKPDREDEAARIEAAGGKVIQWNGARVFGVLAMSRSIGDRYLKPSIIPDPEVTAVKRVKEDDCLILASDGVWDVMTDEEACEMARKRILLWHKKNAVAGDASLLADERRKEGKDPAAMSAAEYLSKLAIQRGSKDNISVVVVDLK
Variant = G108C; result = 7.42%
Variant = M176H; result = 52.3%
Variant = T17A; result = 38.1%
Variant = E89T; result = -6.49%
Variant = Q31M; result = 23.1%
Variant = A30E; result = 41.7%
Variant = N177K; result = 76.3%
Variant = R49H; result = 54.8%

Series 2
Target: RNA binding protein fox-1 homolog 2, RRM domain, GST-SBP tag (RBFOX2, Homo sapiens, UniProt O43251-10, residues 100-194)
Method: RNA Bind-n-Seq
Form: RNA
Matrix: in vitro
Tested at: 365 nM
Setting: natural RNA segment, single round, ends assumed
Reference: no-protein control
Reading: higher = stronger binding
Measurement: RBNS enrichment (R)
Shared flanks, not repeated: GGGAGUUCUACAGUCCGACGAUC … UGGAAUUCUCGGGUGCCAA
Strand = AACCCGGGGUGCCAGGAACACACACAUCCUCCAUCCCAGCAUAGAGAAUGGGGACUCCCUGAGUAAUGGGAGUUCUUUCAUGGCCUCUGCUUGGGGUGGGGGAGUCAGCA; result = 1.11
Strand = GUGGUCCAGGGGCCGCGGAGUGGUUUGGGGGGGAAAAGAGAUUUUUUUCUUCUCUUAAUGGGAAUCGUGAUGGUGUUGAGUUAUUUCACUGGUGGGGUUAAUAUAGCAUG; result = 1.29
Strand = UGUCAUUUUCUUCAUCGGAUGUGACUAAAAUUUUUCUGGUGUCUUCUGCCCUCUCUUUAAUUUUGCCUCUUGAGGGGUAGCAGAUGUGUCAGUGCAUUUUAUUACUUGCU; result = 0.552
Strand = GGUGAAGUCUGUGUACCCAUACUGCAGCCCCAUCCCAUGGGGCCCCUGAAGACCCACUGAGGAAUUCCGUAGGGUCUUGUUCCCACGACCGGAGUGCUGGCUCUCACAGU; result = 0.403
Strand = CCUAAUGAUAUGAAGCCUUCUUUGUCUCUGACCUUUUUUCUCUGAGACCAGGAAUCUAGAUAAUAGUUUAGCUUCUGCCUGAUACUGAUCCGGGAGCACAUGAUAUUUAU; result = 0.577
Strand = CCAAUUAGAAAUAAUUGUAAUGCCUAAAAAACUUUUUCACAAAAAUGAAUCUUUGAAAUUUUUUAUUGUUGAAAAAGUGUUAAGUAACAUAAAUCUAAUCAGAUAUCUUA; result = 0.65
Strand = CCCCUCCCCUUAGCUUUGACUUAGGAAGCCAAGUUUUCUGCAUCAGAUUAUUGCAACAUUUAACCUGAAUUUGUAGAACGGAUGACAUAAAGCAAAUGGAUGUCAAAUGA; result = 0.828
Strand = UAAAGUCCAAGACAUAGGUUUUUCUAGUUUAUUCCCUGAAGAUCUGUUGCCACAGUUGGGAGAUUUCUUCUUAAUCCUGAUUUUCUUGGUAAGCUUUUUUACUUUAUUAU; result = 0.39

Series 3
Target: Phosphate system positive regulatory protein PHO4, full length, GST-tagged (PHO4, Saccharomyces cerevisiae, UniProt P07270, residues 1-312)
Method: competition protein-binding microarray
Form: double-stranded DNA, one strand shown
Matrix: in vitro
Tested at: 2 µM
Setting: whole 60-bp probe, lowest competitor level
With: Cbf1 competitor, 0.05 µM
Reading: higher = stronger binding
Measurement: fluorescence intensity
Shared flanks, not repeated: … GTCTTGATTCGCTTGACGCTGCTG
Construct (chain): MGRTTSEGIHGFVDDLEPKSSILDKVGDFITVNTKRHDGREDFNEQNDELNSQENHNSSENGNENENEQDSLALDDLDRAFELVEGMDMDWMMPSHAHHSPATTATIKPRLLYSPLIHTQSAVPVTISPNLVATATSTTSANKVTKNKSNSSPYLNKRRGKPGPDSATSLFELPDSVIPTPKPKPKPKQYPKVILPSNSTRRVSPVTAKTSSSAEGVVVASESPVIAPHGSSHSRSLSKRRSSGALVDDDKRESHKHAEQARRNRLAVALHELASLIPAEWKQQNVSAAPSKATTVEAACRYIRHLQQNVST
Strand = CGTCCTAGTGATTGGGGGGTGGGTGCCATGAGGAAG; result = 8360 a.u.
Strand = TTATATCAACCGTATGGCGTGCTTTAGCTGCAATAA; result = 6480 a.u.
Strand = ACCCCGGAACACTGGCACGTATTTCATAAAAAGGAC; result = 8150 a.u.
Strand = ACAAGTTCATCATTTCACGTGTGGAGCATAGTGTGG; result = 12400 a.u.
Strand = CATGCCGAGAAGTTACTCGTGCAAATCACTACGATA; result = 7130 a.u.
Strand = CCGCCGCTGCTTTTGCACGTGAGTCCCGCGGATTTT; result = 15100 a.u.
Strand = CATACCCAACCTTGAGGAGTGGGTGAAGATATTTGT; result = 4600 a.u.
Strand = CGTCAGCAAAGGGGACCCGTGATGGAGGCGGCCGGG; result = 5980 a.u.

Other studies, line by line
SMILES = CC(C)n1cnc(-c2ccc(F)cc2)c1-c1ncc(C(=O)Nc2ccc(N3CCN(C)CC3)cc2)[nH]1; assay = phase 2a trial; test system = idiopathic pulmonary fibrosis patients; setting = all arms pooled, grade 5 emergent event; measurement = patients with eczema; result = 0%

Excerpt of the above (series 1):
Variant = G108C; result = 7.42%
Variant = M176H; result = 52.3%
